Experimental data from different studies.
Each line is one published result; not all experiments were run side by side. ± gives the spread as reported.

CC(C)c1ccc(N(C)c2ccc3c(c2)OCC[C@H]3CNc2cnccc2C(=O)O)cc1 — IC50 (NCI-H1650; cell viability, CellTiter-Glo; 7 days): ≥ 10 µM
CC(CCC(=O)OCc1cccc(CN(C(=O)OCc2ccc(B3OC(C)(C)C(C)(C)O3)cc2)[c-]2cccc2)c1)C1CCC2C3C(O)CC4CC(O)CCC4(C)C3CC(O)C12C.[Fe+2].c1cc[cH-]c1 (stereo not shown) — IC50 (A2780; viability, MTT; 96 h): 6.6 ± 0.9 µM
O=C1NCCC12CCN(c1c(Cl)cncc1-c1ccc(N3CCOCC3)cc1)CC2 — IC50 (LS174T; WNT reporter gene, inhibitor, TCF/LEF luciferase): 0.155 ± 0.08 µM
O=[P@]1(c2ccccc2)CC[C@H](O)CC1 — IC50 (HaCaT; cell growth or viability, MTT; 72 h): > 100 µM
CCn1cc(-c2cccc(C(F)(F)F)c2)c2sc(C(=N)NC3CCS(=O)(=O)CC3)cc2c1=O — IC50 (MOLM16; cell growth or viability, ATP luminescence): 1.39 µM
CC(C)(C)c1cnc(CSc2cnc(NC(=O)C3CCN(C(=O)CCCCCCN4Cc5cc6c(cc5C4)C(=O)N(C4CCC(=O)NC4=O)C6=O)CC3)s2)o1 (stereo not shown) — IC50 (SJSA-1; cell growth or viability, MTT): 0.422 µM
CCn1nc(Cl)c2c1-c1cnc(N)c(c1)O[C@H](C)c1cc(F)ccc1-c1nn(C)cc1C2 — IC50 (Ba/F3 ETV6-TRKC; cell viability): 0.35 µM
CCOc1cncc(-c2ccc(NC(=O)C3(c4ccnc(NS(=O)(=O)C5CC5)n4)CCOCC3)nc2)n1 — IC50 (Skut1B; cell proliferation, CellTiter-Glo; 72 h): 1.43 µM
C[C@@H]1CC[C@@H]([C@](O)(COCc2ccccc2)Cn2cnc3ccccc32)[C@H](OCc2ccccc2)C1 — IC50 (A2780; cell growth or viability, MTT; 72 h): 4.32 µM
CNS(=O)(=O)Nc1nccc(Cc2c(C)c3ccc(Oc4ncccc4F)cc3oc2=O)c1F — IC50 (PA-1; cell viability; 7 days): > 1 µM
CCN(C(=O)c1cc(F)ccc1Oc1nncnc1N1CCC2(C1)CN([C@H](CCCN(C)CCOC)C(C)C)C2)C(C)C — IC50 (OCI-AML-3 (NPM1c); mRNA level, QuantiGene multiplex, refers to: PBX3): 0.114 ± 0.029 µM
Cc1cc(C)cc(COc2cc3c(cc2OCc2cc(C)cc(C)c2)[C@@H]2C[C@](O)(Cc4cn(Cc5ccc(F)cc5)nn4)C[C@H](C)N2CC3)c1 (relative stereo) — IC50 (GES1; cell growth or viability, MTT; 48 h): 1.92 µM
Cc1c(C)c2cccnc2c2ncccc12.Cc1ccc2c(Cl)cc(Cl)c([O-])c2n1.Cc1ccc2c(Cl)cc(Cl)c([O-])c2n1.[Co+2] — IC50 (BEL-7404; cell growth or viability, MTT; 48 h): 3.29 µM
C[C@H]1CN(C2COC2)CCN1c1ccc(Nc2cc(-c3ccnc(N4CCn5c(cc6c5CC(C)(C)C6)C4=O)c3CO)cn(C)c2=O)nc1 — IC50 (TMD8 ABBV-105-resistant; cell viability, CellTiter-Glo; 4 days, 48 h drug withdrawal): > 10 µM
Clc1ccnc2c1ccc1c(Cl)ccnc12.[Co+2].[O-]c1c(I)cc(I)c2cccnc12.[O-]c1c(I)cc(I)c2cccnc12 — IC50 (BEL-7404; cell growth or viability, MTT; 48 h): 25 µM
NC(=O)c1ccc(-c2ccccc2Cl)c2c3c([nH]c12)CC[C@H](N)C3 — IC50 (Pfeiffer; cell growth or viability): 0.00626 µM

Some of these lines once more:
CCn1nc(Cl)c2c1-c1cnc(N)c(c1)O[C@H](C)c1cc(F)ccc1-c1nn(C)cc1C2 — IC50 (Ba/F3 ETV6-TRKC; cell viability): 0.35 µM
CCOc1cncc(-c2ccc(NC(=O)C3(c4ccnc(NS(=O)(=O)C5CC5)n4)CCOCC3)nc2)n1 — IC50 (Skut1B; cell proliferation, CellTiter-Glo; 72 h): 1.43 µM
